Measurements gathered from unrelated publications.
Numbered parts are unrelated; each lists some results of a single study. Substitutions count along the parent as printed.

Study 1 — method: RNA Bind-n-Seq; molecule type: RNA; sample: in vitro; concentration: 100 nM; baseline: input RNA pool; direction: higher = stronger binding
Target: RING finger protein unkempt homolog, zinc fingers 1-6, SBP tag (UNK, Homo sapiens, UniProt Q9C0B0, residues 30-357)
Sequence of UniProt Q9C0B0 (30-357, looked up): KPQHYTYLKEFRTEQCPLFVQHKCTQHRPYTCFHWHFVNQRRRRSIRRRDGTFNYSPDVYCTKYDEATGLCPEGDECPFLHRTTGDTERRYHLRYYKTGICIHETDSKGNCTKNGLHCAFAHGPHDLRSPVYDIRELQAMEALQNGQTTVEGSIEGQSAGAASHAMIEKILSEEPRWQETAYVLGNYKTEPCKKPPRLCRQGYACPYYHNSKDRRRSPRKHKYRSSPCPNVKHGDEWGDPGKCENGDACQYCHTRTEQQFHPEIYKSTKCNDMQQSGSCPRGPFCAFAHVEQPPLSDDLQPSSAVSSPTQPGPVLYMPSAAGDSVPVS
Notes: RNA with constant flanks, vertebrate orthologous sites, ends assumed
All sequences stand within: GGGAGUUCUACAGUCCGACGAUC … CAACAGAGGAUUGAGCAUCA
Strand	bound/input enrichment [ratio]
GCUUGCCCGUUGACCCGAAAAAUAGGACUUUUUAGAAUUGCAUUGCCACUUCUAAAAUCCUAGCAAUAUUAGAAUAACACAUCAGUGAGAUAAAUUUUACUCAAUUAUUUUACAAACCAA	1.07
AGUAGUUUAAAGCUUGUUUGCACAGUUCUUUUUUUCCAUUGGAAAUGGAAUUCAUUGCCUUAGGUCUUUUUAAAUAGUGUAUUAUCGUUGGGGCUGGCUCUAUGCUUGAAAACCAGUUUA	2.54
UAUUAGUGUCAUACCAGCAUAUUAACCUCUCGUCUGUGCACAGCUUCCAACGUUACCGUCUAGUUAGAUUUUUAUUUAAAAUAUGAAAAACUGCUUUUCCCAAGACGUUUUUUAAAAACA	1.36
AGGAAAUGCUGGCUGCAAACCCUCAGGAUCGCCCAGAUGCUUUUGAACUAGAACUCAGAUUAGUACAAAUUGCAUUUAAAGAUAGCAGCUGGGAAACGUGACACAUAUUAUUUGCAAAUA	0.685
ACGCUUCGAUGUUAAAUUUGACAUAAAGAGCAGCUGAUCAUAAGCACCAUUUUAUCCUCCUAGCCAUUUAAAAGUUUAAACAAAACAAAAAAAACCUACUAGUCUUGAACAAACUGUCAU	0.744
ACUUUAGUUCUUAACAACCAACACUCCUAAAUGAGUUAGAAAAAAGUUUACAACAUAAUCUAGUUUACAAAGAAGUCUUGUGCUAGAAUACUUUUUACAAAGUAUUUUUGAAUACCAUUA	0.624

Study 2 — target: CCNB3, cyclin fold, Cln2 fusion (human); method: yeast growth competition, sequencing; sample: yeast; notes: weak parent motif; baseline: not given; direction: higher = stronger binding
Starting sequence: RBL1 docking peptide (human); GSAKRRLFGEDPP
Change	normalised enrichment score
R6M	0.229
G9C	1.27
S2K	0.294
G9P	1.18
P13A	0.787
A3V	1.45
L7G	0.337
R5G	0.238
G9F	1.32
G1P	0.486
K4I	0.424
L7W	0.488
A3I	0.366
A3F	0.425
F8D	0.422
R6F	0.823

Study 3 — method: RNA Bind-n-Seq; molecule type: RNA; sample: in vitro; concentration: 200 nM; notes: whole 134-nt RNA, ends assumed; together with: 150 mM LiCl; baseline: input library; direction: higher = stronger binding; library: 7-deaza-guanosine replaces G
Target: Ras GTPase-activating protein-binding protein 1, full length (G3BP1, Homo sapiens, UniProt Q13283)
Sequence of UniProt Q13283 (whole entry, looked up): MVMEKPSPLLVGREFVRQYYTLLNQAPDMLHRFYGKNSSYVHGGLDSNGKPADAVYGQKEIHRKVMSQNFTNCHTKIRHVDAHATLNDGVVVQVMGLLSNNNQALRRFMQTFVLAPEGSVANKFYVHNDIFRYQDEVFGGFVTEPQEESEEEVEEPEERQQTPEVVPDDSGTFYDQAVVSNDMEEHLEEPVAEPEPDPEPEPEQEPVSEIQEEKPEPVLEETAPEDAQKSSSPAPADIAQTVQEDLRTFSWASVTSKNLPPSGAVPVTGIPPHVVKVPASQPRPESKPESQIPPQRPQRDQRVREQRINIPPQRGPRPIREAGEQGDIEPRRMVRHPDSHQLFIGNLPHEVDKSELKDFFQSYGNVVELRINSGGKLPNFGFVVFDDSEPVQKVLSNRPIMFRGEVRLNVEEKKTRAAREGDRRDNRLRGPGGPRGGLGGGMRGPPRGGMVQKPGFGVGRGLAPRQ
All sequences stand within: GGGAGUUCUACAGUCCGACGAUC … UGGAAUUCUCGGGUGUCAAGG
Strand	log2 enrichment
CAAGUCCUGUGCUACACAUCGUAUGUACCGAAUCGGUUUUUGGAAAGGAAAAAGGAAAGUAUUAUGUUACGCCGUUCGGAUCUGCACUUC	-0.613
AGUCCUGUGCUACACAUCGUAUGUACCGAAUCGGGUUUUUGGGUGGGAAAAAAAGGGAAAGUAUUAUGUUACGCCGUUCGGAUCUGCACU	-0.93
CAAGUCCUGUGCUACACAUCGUAUGUACCGAAUCGGUUUUUUUGGUUUUUGGUGGAAAGUAUUAUGUUACGCCGUUCGGAUCUGCACUUC	-1
UGGGAGGUGGAUUUUGUUUAUUUUUUUAGCUCAUUUCCAGGGGUGGGAAUUUUUUAUUAAUAUGUGUCAUGAAUAAAGUUGUUUUUGAAA	-0.608
AAGUCCUGUGCUACACAUCGUAUGUACCGAAUCGGAAAAGGGAAAAGGGGAAAAGGAAAGUAUUAUGUUACGCCGUUCGGAUCUGCACUU	-0.167
CUGUGCUACACAUCGUAUGUACCGAAUCGGGGUUUUUUUGGGGUUUUUUUGGGGUUUGGGGAAAGUAUUAUGUUACGCCGUUCGGAUCUG	1.38

Study 4 — method: protein-binding microarray; molecule type: double-stranded DNA, one strand shown; sample: in vitro; concentration: 0.8 µM; notes: whole 60-bp probe, no competitor; direction: higher = stronger binding; all sequences stand within: … GTCTTGATTCGCTTGACGCTGCTG
Target: Centromere-binding protein 1, full length, N-terminal tag (CBF1, Saccharomyces cerevisiae, UniProt P17106, residues 1-351)
Sequence of UniProt P17106 (whole entry, looked up): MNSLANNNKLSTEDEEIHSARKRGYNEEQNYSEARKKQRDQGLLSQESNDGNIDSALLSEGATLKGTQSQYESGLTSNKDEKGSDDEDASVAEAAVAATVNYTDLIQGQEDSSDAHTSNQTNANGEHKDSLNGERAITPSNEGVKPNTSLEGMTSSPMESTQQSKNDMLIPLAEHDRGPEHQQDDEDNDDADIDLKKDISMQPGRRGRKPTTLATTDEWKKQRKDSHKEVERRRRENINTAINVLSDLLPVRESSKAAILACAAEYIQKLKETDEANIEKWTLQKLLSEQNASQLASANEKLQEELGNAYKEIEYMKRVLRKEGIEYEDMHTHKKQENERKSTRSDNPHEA
Strand	fluorescence intensity [a.u.]
CTACTAATCATTATGCACGTCAAGATTCTCCGTTTC	551
CTATTGAAAAACAGTCATCAGATGTTTGGGAAGTTC	588
CCTAACTACTATATTTACGTGTCATAGCTTCGTACA	487
CTACAGCTACGTGTGATCATATAATTCCTGCATTTC	701
CTATCCATGACGTTCTACGTGGTTCTCTTGGTCTTC	514
GAATGTTTATTGTGTGGTGTGGTTTGACGCACATAG	542
TGTACGAAGCTATTGTTCGTGGGTATAGTAGTTAGG	525
CTATGCGCCGGGTGATGCGTGACGCGTTTTTGGTTC	978
CCTAACTACTATAATGCACGTGCATAGCTTCGTACA	8770
CTAAGTAGAGAGAATCACGATCTAAATAATAATTTC	626
CTAACGACTTCTTATCACGTATAGGAGTGATATTTC	550
TGTACGAAGCTATGTCATGCGCGTATAGTAGTTAGG	611
GAATACGAGATCGTACAGGAGATGGAAGAATATTAG	495
CTAGCCCCTAGATGTCACCTGAGCTGTAGTCAATTC	1080
GAAATTTGTGTCAACGGCGTGCTCTATTCCTTGTAG	566

Study 5 — method: RNA Bind-n-Seq; molecule type: RNA; sample: in vitro; concentration: 365 nM; baseline: no-protein control; direction: higher = stronger binding
Target: RNA binding protein fox-1 homolog 2, RRM domain, GST-SBP tag (RBFOX2, Homo sapiens, UniProt O43251-10, residues 100-194)
Notes: natural RNA segment, single round, ends assumed
All sequences stand within: GGGAGUUCUACAGUCCGACGAUC … UGGAAUUCUCGGGUGCCAA
Target sequence (chain): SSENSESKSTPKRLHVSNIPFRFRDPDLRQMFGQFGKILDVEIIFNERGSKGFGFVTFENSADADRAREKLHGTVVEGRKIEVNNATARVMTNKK
Strand	RBNS enrichment (R)
CUUUGGCCACUUGAAGUUCCUGUUAGUGAGGCUCCAAGGAUCUACCAAGGUGCUAUGGCGCAAAGGGCCCUUCUGCAGAAACCCAGUUUUCCUACCUGGGCUGGUUUCUU	0.383
AUUUCAUCCUGAUGUUUAGGGGACUUGUCCUGGUUCAUCUUAGUUAAUGUGUUCUUUGCCAAGGUGAUCUAAGUUGCCUACCUUGAAUUUUUUUUUAAAUAUAUUUGAUG	0.387
CCUUACCCCUUAGCCUCCCUGAAAAUGUUUUUCUGCCAGGGAGCUUGAAAGUUUUCAGAACCUCUUCCCCAGAAAGGAGACUAGAUUGCCUUUGUUUUGAUGUUUGUGGC	0.684
AGUGGGAGCUCAUGGGUGACAGUAAAACUUAGGUGUCUCAGAACUUAACAUUUAGUAAAGUGAUGUAGAUCCAAUGUCAGGAAAGGAAGGACUGUGUUACUGUGCCUCCU	0.367
GAGCCAGACUUGUAUAUUCUAUUUUACAACUACAAAGGCCUCCUAAGUAUUGUACCUUCAGCGUGCAGUAUCUGUGAACUGAUUUCUCCAAGUGUGAGCUUUCUGAGCAA	0.284
GAGCACGCUGGAGCACAUCCUGUCCCAUGAGGGAGGAGGAGGAGCGUUGGCCUAACACUGGCUGUUUCGAUAGUGUGGGGGCUACAUGUGCCUGUAGGGGUCAGGCCUUG	0.743
GUGAGCCACUGCACCCAGCCCACUUUUUUUUUACUCUGAAGUGAUUCCAGUCAUAUGUGUGUGUAACUGCAUCCUAUGAGAAGAGCACAAAUAUUGCUGUUCCAUGUUCU	0.797
GCCAAAAUGAAUGCUGACUCCUGAUACUCCGCACAAGCACACCAACUCCAAAAGUGCCUUAAAGCCAGGUUUGUGUCUCCUUUCAGGAGAGAGCGUGUAACGUCAGAUUU	0.868
UUUCCCAUUAAGUCUGAGAGGCAAGAGCUAGGUUAGGCAAGGAGGUGGUUGGCCAGAGAUGGGGAACAGCCAGGUGCCCCAGUCCUCUGAUUUUUCCUCCAUCCUGCUUA	0.504
UUUCAAGAACUUGUUUAAUAAAGCGAAAAACUCAACCAAAUGGUACAAAACCACAGUGUACCAUUAAAAUAUGCACUAAGUCUCUUUUUUACAAAGGCUGUAUUCAGCAA	0.542
UCUAUCCCCUGGAACUUAUGCAUUACAUGUAUUCAGAUAGUAUCUCAACGAUUAUAGAGAGCCUUUUCUGUCCAAGCUGUCUCAUUCCAGUCCUCUAACACCCCUUGAGA	0.476
UAUUAACAGCUUAAUUUUUCUCUUUUACUCCAUAGGAACUUAUUUUAAUAGUAACAUUAACAACAAGAAUACUAAGACUGUUUGGGAAUUUUAAAAAGCUACUAGUGAGA	0.379

Study 6 — method: protein binding microarray; molecule type: double-stranded DNA, one strand shown; sample: in vitro; concentration: not given; baseline: not given; direction: higher = stronger binding
Target: Histone acetyltransferase KAT6A, both winged helices, GST fusion (KAT6A, Homo sapiens, UniProt Q92794, residues 1-181)
Notes: 8-mer, flanks averaged, mean of 2 arrays, mostly near background
Construct (chain): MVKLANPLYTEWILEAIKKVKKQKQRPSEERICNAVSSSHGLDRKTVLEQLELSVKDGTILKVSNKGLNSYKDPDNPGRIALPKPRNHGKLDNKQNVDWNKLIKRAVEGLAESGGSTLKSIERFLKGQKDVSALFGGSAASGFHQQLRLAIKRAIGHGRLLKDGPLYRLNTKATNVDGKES
Strand	E-score
AATATGGT	-0.0775
TATAGCCA	-0.0777
TGACTGAA	-0.1
ACGCTCCC	0.0902
AGGGGGGC	-0.214
AACCTCAT	-0.122
CGAGACGA	-0.0373
GAAAATTC	0.0877
TCCTTCCA	-0.311
ACGACGCC	0.232
CCCCCAAA	-0.198
TGCTAGAA	-0.0104
CTAATCTC	-0.159
CACTTAGA	-0.0851
ACAGGGAC	0.0721
ACCGGCTC	0.132
